{"data": "Measured values pooled from the literature", "note": "Parts stem from different laboratories: compare values within a part only. pEC50: −log10 of the molar value.", "chain of UniProt P00519 (whole entry, unmodified, looked up)": "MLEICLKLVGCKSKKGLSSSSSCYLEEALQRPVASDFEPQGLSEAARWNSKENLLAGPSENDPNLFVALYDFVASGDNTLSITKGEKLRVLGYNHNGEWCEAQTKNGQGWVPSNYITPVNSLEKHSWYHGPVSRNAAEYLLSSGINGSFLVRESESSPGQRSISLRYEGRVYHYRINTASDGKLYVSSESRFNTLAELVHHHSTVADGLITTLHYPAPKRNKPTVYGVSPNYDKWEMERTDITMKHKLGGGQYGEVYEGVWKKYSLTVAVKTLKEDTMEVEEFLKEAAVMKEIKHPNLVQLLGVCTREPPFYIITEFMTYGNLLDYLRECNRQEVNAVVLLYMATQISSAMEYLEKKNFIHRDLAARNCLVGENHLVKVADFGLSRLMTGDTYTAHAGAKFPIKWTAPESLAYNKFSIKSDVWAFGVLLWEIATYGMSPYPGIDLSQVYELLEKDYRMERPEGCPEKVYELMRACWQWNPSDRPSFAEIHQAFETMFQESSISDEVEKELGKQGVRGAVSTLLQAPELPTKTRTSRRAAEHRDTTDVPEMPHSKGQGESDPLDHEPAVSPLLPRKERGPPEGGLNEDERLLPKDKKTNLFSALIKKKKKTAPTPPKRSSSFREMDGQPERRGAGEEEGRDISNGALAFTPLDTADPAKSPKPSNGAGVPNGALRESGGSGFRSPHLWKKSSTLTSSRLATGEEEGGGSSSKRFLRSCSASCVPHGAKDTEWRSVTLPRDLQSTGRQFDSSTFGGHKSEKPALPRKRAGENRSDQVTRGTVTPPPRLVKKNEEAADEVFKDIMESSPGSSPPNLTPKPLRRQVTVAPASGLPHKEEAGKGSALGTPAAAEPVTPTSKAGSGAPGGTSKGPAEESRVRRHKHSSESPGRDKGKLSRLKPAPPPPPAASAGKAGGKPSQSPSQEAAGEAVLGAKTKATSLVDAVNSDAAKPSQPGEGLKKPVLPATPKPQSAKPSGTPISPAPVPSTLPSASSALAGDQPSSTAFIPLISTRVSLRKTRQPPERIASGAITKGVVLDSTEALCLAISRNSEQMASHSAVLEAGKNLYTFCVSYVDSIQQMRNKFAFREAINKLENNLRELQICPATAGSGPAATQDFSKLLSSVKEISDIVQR", "chain of UniProt Q15418 (whole entry, looked up)": "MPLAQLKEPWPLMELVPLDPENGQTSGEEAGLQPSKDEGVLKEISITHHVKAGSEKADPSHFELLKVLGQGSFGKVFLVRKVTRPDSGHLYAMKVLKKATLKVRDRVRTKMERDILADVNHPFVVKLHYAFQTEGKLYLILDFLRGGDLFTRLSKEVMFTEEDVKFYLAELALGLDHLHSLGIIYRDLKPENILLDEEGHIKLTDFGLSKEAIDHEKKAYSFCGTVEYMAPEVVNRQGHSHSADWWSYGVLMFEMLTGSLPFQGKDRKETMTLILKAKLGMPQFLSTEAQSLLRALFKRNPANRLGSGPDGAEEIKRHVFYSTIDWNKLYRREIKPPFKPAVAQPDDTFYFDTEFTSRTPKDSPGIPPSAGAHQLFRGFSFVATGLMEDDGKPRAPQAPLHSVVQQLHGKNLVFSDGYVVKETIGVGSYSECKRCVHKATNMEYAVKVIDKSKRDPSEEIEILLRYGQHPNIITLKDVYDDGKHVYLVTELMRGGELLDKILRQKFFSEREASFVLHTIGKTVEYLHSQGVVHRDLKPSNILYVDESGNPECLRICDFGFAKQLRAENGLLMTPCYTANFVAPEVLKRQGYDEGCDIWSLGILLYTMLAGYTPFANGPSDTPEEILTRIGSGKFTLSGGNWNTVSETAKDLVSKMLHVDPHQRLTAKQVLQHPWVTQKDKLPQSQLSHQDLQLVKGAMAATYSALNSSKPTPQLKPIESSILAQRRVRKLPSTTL", "chain of UniProt P48730 (whole entry, looked up)": "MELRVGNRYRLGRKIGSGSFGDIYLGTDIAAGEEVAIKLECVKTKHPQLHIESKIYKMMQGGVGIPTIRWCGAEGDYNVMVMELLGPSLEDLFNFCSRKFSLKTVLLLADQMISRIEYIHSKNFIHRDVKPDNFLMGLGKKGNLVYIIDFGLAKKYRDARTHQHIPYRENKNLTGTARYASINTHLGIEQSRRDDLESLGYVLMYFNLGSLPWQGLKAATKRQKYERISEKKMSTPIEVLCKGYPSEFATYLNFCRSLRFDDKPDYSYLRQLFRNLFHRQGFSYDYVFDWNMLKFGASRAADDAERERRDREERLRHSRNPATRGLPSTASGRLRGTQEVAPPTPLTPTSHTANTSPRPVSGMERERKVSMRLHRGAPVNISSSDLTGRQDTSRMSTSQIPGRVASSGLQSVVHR", "chain of UniProt P07947 (whole entry, looked up)": "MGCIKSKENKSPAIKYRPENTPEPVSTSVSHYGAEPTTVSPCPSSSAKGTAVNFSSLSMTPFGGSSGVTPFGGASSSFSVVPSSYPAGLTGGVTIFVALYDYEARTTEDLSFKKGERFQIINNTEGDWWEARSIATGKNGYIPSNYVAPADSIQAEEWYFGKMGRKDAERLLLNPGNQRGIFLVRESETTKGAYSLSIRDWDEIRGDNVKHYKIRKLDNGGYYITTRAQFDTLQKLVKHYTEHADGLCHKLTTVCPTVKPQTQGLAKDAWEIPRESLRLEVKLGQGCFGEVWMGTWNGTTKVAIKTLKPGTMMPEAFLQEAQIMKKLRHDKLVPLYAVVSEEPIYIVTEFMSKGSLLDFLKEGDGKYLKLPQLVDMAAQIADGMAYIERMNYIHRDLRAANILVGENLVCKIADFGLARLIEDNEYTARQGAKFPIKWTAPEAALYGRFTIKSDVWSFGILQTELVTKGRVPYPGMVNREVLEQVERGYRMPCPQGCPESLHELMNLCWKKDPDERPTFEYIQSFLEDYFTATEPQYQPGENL", "chain of UniProt P46734 (whole entry, looked up)": "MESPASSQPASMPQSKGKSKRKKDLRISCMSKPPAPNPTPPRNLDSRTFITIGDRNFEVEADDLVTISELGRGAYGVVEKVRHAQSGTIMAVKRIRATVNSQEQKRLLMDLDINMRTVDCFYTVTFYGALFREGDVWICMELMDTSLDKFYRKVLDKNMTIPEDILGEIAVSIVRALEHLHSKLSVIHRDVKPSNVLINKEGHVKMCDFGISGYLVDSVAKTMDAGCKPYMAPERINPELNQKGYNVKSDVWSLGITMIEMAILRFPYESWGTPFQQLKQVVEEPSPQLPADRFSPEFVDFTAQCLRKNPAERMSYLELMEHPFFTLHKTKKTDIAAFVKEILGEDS", "chain of UniProt P22607 (whole entry, looked up)": "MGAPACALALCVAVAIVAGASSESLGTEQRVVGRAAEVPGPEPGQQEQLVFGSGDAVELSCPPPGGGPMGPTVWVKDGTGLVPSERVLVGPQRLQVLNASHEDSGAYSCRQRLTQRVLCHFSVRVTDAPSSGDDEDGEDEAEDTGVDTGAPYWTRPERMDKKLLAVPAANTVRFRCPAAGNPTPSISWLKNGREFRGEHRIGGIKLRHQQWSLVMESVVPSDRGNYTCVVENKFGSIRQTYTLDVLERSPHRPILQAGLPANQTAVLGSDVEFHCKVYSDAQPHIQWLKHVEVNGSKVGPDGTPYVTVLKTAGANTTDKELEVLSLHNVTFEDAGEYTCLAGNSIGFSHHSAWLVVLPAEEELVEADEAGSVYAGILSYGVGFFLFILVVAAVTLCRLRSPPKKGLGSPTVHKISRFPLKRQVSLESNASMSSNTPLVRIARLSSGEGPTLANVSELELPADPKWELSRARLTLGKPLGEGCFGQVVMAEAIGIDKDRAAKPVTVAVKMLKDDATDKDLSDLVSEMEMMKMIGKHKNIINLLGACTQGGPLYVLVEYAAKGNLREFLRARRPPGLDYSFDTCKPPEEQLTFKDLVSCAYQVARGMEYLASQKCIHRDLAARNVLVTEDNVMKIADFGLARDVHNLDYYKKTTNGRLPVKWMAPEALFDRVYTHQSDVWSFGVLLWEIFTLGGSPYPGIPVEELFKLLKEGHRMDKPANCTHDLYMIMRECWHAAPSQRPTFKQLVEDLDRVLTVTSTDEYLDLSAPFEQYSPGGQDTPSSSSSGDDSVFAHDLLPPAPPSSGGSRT", "chain of UniProt P21709 (whole entry, looked up)": "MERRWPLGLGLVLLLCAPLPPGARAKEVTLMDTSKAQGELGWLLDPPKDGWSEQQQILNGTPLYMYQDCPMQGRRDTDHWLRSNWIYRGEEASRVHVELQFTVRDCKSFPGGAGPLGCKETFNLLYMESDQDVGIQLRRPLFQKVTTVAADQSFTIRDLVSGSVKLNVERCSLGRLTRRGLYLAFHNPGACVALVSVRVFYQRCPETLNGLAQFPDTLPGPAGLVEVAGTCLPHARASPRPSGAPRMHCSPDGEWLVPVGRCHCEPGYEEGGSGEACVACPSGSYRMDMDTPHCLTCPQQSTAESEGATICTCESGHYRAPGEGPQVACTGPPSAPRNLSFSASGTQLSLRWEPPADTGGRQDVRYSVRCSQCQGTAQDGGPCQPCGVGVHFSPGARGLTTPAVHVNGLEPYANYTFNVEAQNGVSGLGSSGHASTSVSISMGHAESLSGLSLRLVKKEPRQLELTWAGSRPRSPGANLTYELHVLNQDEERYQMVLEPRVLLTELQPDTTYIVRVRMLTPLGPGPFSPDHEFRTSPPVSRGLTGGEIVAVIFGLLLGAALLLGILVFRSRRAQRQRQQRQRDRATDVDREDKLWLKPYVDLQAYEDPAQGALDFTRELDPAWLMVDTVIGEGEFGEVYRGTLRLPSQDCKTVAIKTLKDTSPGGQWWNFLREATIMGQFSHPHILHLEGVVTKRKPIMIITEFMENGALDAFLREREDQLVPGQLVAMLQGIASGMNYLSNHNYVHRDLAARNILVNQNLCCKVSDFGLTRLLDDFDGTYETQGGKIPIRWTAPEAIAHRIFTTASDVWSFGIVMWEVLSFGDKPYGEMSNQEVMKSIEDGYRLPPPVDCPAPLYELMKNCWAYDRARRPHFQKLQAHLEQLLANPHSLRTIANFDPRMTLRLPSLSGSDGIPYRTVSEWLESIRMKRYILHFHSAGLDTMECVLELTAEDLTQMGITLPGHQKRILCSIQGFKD"}
{"data": "Series 1", "species": "mouse", "matrix": "microsomes or S9", "concentration": "2 µM", "time": "0.5 h"}
{"SMILES": "O=C1CC(c2cccc3[nH]ccc23)c2c(n[nH]c2-c2ccccc2)N1 (stereo not shown)", "remaining compound [%]": 9.94}
{"SMILES": "CC(C)(C)c1cn2c3ccccc3nc2n1CCNC1CCCCC1", "remaining compound [%]": 9.34}
{"SMILES": "Cn1ccnc1/C=N/Nc1nncc2ccccc12", "remaining compound [%]": 10.4}
{"SMILES": "CC(=O)Nc1cc2ccc(OC(C)=O)cc2oc1=O", "remaining compound [%]": 2.89}
{"SMILES": "Cn1c(=O)c2c(ncn2CC(O)C/N=C2\\CCCCCN2)n(C)c1=O (stereo not shown)", "remaining compound [%]": 84.4}
{"SMILES": "CC(C)[C@@H](NS(=O)(=O)c1c(N)cc(Cl)cc1Cl)C(=O)NOC(C)(C)C", "remaining compound [%]": 0}
{"SMILES": "COc1cc(=O)[nH]cc1C(=O)N1CCCC1c1cncc(C)c1 (stereo not shown)", "remaining compound [%]": 88.5}
{"SMILES": "Cc1ccc(C/N=C2\\C(c3ccc(F)c(F)c3)=Nc3ncnn32)cc1", "remaining compound [%]": 74.2}
{"SMILES": "COc1cccc(-c2nc3cc(Cl)ccc3c3ccnn23)c1", "remaining compound [%]": 8.82}
{"SMILES": "COC(=O)c1ccc(S(C)(=O)=O)c(COCCn2cncn2)c1Cl", "remaining compound [%]": 80.5}
{"SMILES": "Cc1ccc(-c2nnco2)cc1N1C(=O)NC(C)(c2ccc(S(C)(=O)=O)cc2)C1=O (stereo not shown)", "remaining compound [%]": 76.7}
{"SMILES": "CCOC(=O)C(C)(C)Cc1nc(-c2ccc(OCc3ccc(OC)cc3)cn2)no1", "remaining compound [%]": 0.886}
{"SMILES": "CN1CC[C@H](Oc2cc(N3Cc4ccccc4C3=O)ccc2Cl)C1", "remaining compound [%]": 27.4}
{"SMILES": "COc1cccc(NC(=O)c2c(C)nc(C)c(C(=O)O)c2-c2ccc(Cl)cc2)c1", "remaining compound [%]": 6}
{"SMILES": "COc1ccc(/C=N/n2cnnc2)cc1Br", "remaining compound [%]": 34.2}
{"SMILES": "Cc1ccc(S(=O)(=O)Nc2ccc3nc(N4CCN(c5ccccc5)CC4)cc(C(=O)O)c3c2)cc1", "remaining compound [%]": 63.4}
{"SMILES": "Cc1ccccc1C1CC(=O)c2c(C)nc(N)nc2C1 (stereo not shown)", "remaining compound [%]": 16.4}
{"SMILES": "CN(C)c1ccc2c3c(ccc(N(C)C)c13)C(=O)OC2", "remaining compound [%]": 45.2}
{"SMILES": "CC(=O)c1c(NN2CCOCC2)[nH]c2c(Cl)cc([N+](=O)[O-])cc2c1=O", "remaining compound [%]": 23.4}
{"data": "Series 2", "SMILES": "CNCc1ccccc1-c1csc([C@H](C)Nc2nc(C)nc3cc(OC)c(OC)cc23)c1", "concentration": "1 µM"}
{"target": "Fibroblast growth factor receptor 3 (FGFR3, Homo sapiens, UniProt P22607)", "assay": "cell-free assay, competition with immobilised ligand", "remaining binding [%]": 98}
{"target": "Insulin-like growth factor 1 receptor (IGF1R, Homo sapiens, UniProt P08069)", "assay": "cell-free assay, competition with immobilised ligand", "remaining binding [%]": 100}
{"target": "Wee1-like protein kinase (WEE1, Homo sapiens, UniProt P30291)", "assay": "cell-free assay, competition with immobilised ligand", "remaining binding [%]": 100}
{"target": "5'-AMP-activated protein kinase catalytic subunit alpha-1 (PRKAA1, Homo sapiens, UniProt Q13131)", "assay": "cell-free assay, competition with immobilised ligand", "remaining binding [%]": 93}
{"target": "Hepatocyte growth factor receptor (MET, Homo sapiens, UniProt P08581)", "assay": "cell-free assay, competition with immobilised ligand", "remaining binding [%]": 100}
{"target": "Dual specificity mitogen-activated protein kinase kinase 3 (MAP2K3, Homo sapiens, UniProt P46734)", "assay": "cell-free assay, competition with immobilised ligand", "remaining binding [%]": 98}
{"target": "Angiopoietin-1 receptor (TEK, Homo sapiens, UniProt Q02763)", "assay": "cell-free assay, competition with immobilised ligand", "remaining binding [%]": 100}
{"target": "Dual specificity mitogen-activated protein kinase kinase 4 (MAP2K4, Homo sapiens, UniProt P45985)", "assay": "cell-free assay, competition with immobilised ligand", "remaining binding [%]": 100}
{"target": "Maternal embryonic leucine zipper kinase (MELK, Homo sapiens, UniProt Q14680)", "assay": "cell-free assay, competition with immobilised ligand", "remaining binding [%]": 74}
{"target": "Casein kinase I isoform delta (CSNK1D, Homo sapiens, UniProt P48730)", "assay": "cell-free assay, competition with immobilised ligand", "remaining binding [%]": 95}
{"target": "Mitogen-activated protein kinase kinase kinase 5 (MAP3K5, Homo sapiens, UniProt Q99683)", "assay": "cell-free assay, competition with immobilised ligand", "remaining binding [%]": 100}
{"target": "Epidermal growth factor receptor (EGFR, Homo sapiens, UniProt P00533, del752-759)", "assay": "cell-free assay, competition with immobilised ligand", "remaining binding [%]": 81}
{"target": "Activin receptor type-1 (ACVR1, Homo sapiens, UniProt Q04771)", "assay": "cell-free assay, competition with immobilised ligand", "remaining binding [%]": 100}
{"target": "Ribosomal protein S6 kinase alpha-1, N-terminal kinase domain (RPS6KA1, Homo sapiens, UniProt Q15418)", "assay": "cell-free assay, competition with immobilised ligand", "remaining binding [%]": 93}
{"target": "Tyrosine-protein kinase Yes (YES1, Homo sapiens, UniProt P07947)", "assay": "cell-free assay, competition with immobilised ligand", "remaining binding [%]": 100}
{"target": "Ephrin type-A receptor 1 (EPHA1, Homo sapiens, UniProt P21709)", "assay": "cell-free assay, competition with immobilised ligand", "remaining binding [%]": 100}
{"target": "Tyrosine-protein kinase Fes/Fps (FES, Homo sapiens, UniProt P07332)", "assay": "cell-free assay, competition with immobilised ligand", "remaining binding [%]": 100}
{"target": "Serine/threonine-protein kinase Nek1 (NEK1, Homo sapiens, UniProt Q96PY6)", "assay": "cell-free assay, competition with immobilised ligand", "remaining binding [%]": 100}
{"target": "Proto-oncogene tyrosine-protein kinase ROS (ROS1, Homo sapiens, UniProt P08922)", "assay": "cell-free assay, competition with immobilised ligand", "remaining binding [%]": 100}
{"target": "Tyrosine-protein kinase Blk (BLK, Homo sapiens, UniProt P51451)", "assay": "cell-free assay, competition with immobilised ligand", "remaining binding [%]": 94}
{"target": "Tyrosine-protein kinase ABL1, phosphorylated (ABL1, Homo sapiens, UniProt P00519, F317I)", "assay": "binding", "remaining binding [%]": 80}
{"data": "Series 3", "target": "Serine/threonine-protein kinase haspin (HASPIN, Homo sapiens, UniProt Q8TF76)", "effect on": "enzyme activity", "action": "inhibitor", "concentration": "0.5 µM", "relative to": "control", "Residues (Q8TF76 1-798)": "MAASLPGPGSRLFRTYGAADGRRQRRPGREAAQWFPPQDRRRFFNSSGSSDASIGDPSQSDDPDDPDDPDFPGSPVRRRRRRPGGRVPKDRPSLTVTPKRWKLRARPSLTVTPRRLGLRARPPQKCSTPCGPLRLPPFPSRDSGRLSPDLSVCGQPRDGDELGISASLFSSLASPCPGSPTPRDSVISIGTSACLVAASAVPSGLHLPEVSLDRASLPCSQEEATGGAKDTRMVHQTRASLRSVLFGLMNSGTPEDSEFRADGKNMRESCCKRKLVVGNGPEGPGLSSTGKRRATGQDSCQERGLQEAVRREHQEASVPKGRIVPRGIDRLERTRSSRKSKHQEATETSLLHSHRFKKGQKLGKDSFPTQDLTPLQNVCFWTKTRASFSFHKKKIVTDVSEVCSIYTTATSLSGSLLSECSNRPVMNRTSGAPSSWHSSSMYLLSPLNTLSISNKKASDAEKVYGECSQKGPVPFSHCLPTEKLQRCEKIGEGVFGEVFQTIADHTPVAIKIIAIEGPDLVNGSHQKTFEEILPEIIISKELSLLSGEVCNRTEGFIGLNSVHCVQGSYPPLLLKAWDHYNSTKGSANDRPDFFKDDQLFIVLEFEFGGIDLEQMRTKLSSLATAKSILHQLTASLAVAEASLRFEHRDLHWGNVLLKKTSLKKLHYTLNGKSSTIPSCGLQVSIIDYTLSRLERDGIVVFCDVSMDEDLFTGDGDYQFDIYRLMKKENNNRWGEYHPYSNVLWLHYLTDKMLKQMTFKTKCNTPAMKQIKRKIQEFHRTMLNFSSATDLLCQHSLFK"}
{"SMILES": "COc1cc(Nc2c(C#N)cnc3cc(OCCCN4CCN(C)CC4)c(OC)cc23)c(Cl)cc1Cl", "remaining activity [%]": 65.6}
{"SMILES": "O=S(=O)(NCCNC/C=C/c1ccc(Br)cc1)c1cccc2cnccc12", "remaining activity [%]": 55.1}
{"SMILES": "O=C1Cc2c([nH]c3ccc([N+](=O)[O-])cc23)-c2ccccc2N1", "remaining activity [%]": 106}
{"SMILES": "CC#CC(=O)Nc1cc2c(Nc3ccc(F)c(Cl)c3)ncnc2cn1", "remaining activity [%]": 101}
{"SMILES": "COc1ccc(S(=O)(=O)N(CCO)c2ccccc2CN(C)CC=Cc2ccc(Cl)cc2)cc1", "remaining activity [%]": 95.3}
{"SMILES": "Nc1nccc(-c2c(-c3ccc(F)cc3)ncn2C2CCNCC2)n1", "remaining activity [%]": 91.4}
{"SMILES": "CCCC(=O)Oc1ccc2[nH]c(C(=O)c3cc4ccccc4[nH]3)cc2c1", "remaining activity [%]": 99.2}
{"SMILES": "Fc1ccc(-c2nc3n(c2-c2ccncc2)CCS3)cc1", "remaining activity [%]": 104}
{"SMILES": "N#CC(=C(N)Sc1ccc(N)cc1)c1ccccc1C(F)(F)F", "remaining activity [%]": 99.9}
{"SMILES": "CC[n+]1c(/C=C/N(C)c2ccccc2)n(-c2ccccc2)c2ccc(-c3nc4ccccc4s3)cc21", "remaining activity [%]": 110}
{"SMILES": "CSc1nc(-c2ccnc(N[C@@H](C)c3ccccc3)c2)c(-c2ccc(F)cc2)[nH]1 (racemic)", "remaining activity [%]": 96.3}
{"data": "Series 4", "Compound": "O=C1NC(=O)C(c2cn(-c3ccccc3)nc2-c2ccc(F)cc2)N1 (stereo not shown)", "cell line": "human cells"}
{"target": "Discoidin domain-containing receptor 2 (DDR2, Homo sapiens, UniProt Q16832)", "assay": "kinase–CDC37 interaction, inhibitor", "conditions": "kinome plate 1@E12", "pEC50": "< 5.00"}
{"target": "BCR-ABL", "assay": "kinase–CDC37 interaction, inhibitor", "pEC50": 6.41}
{"target": "CaM kinase-like vesicle-associated protein (CAMKV, Homo sapiens, UniProt Q8NCB2)", "assay": "kinase–CDC37 interaction, inhibitor", "conditions": "kinome plate 2@E05", "pEC50": "< 5.00"}
{"target": "Tyrosine-protein kinase ABL1, BCR fusion (ABL1, Homo sapiens, UniProt P00519)", "assay": "kinase-HSP90-CDC37 interaction", "pEC50": 6.41}
{"note": "Excerpt of the above (series 1):"}
{"SMILES": "COc1cccc(-c2nc3cc(Cl)ccc3c3ccnn23)c1", "remaining compound [%]": 8.82}
{"SMILES": "COC(=O)c1ccc(S(C)(=O)=O)c(COCCn2cncn2)c1Cl", "remaining compound [%]": 80.5}
{"SMILES": "Cc1ccc(-c2nnco2)cc1N1C(=O)NC(C)(c2ccc(S(C)(=O)=O)cc2)C1=O (stereo not shown)", "remaining compound [%]": 76.7}
{"SMILES": "CCOC(=O)C(C)(C)Cc1nc(-c2ccc(OCc3ccc(OC)cc3)cn2)no1", "remaining compound [%]": 0.886}
{"SMILES": "CN1CC[C@H](Oc2cc(N3Cc4ccccc4C3=O)ccc2Cl)C1", "remaining compound [%]": 27.4}
{"SMILES": "COc1cccc(NC(=O)c2c(C)nc(C)c(C(=O)O)c2-c2ccc(Cl)cc2)c1", "remaining compound [%]": 6}
{"SMILES": "COc1ccc(/C=N/n2cnnc2)cc1Br", "remaining compound [%]": 34.2}
{"SMILES": "Cc1ccc(S(=O)(=O)Nc2ccc3nc(N4CCN(c5ccccc5)CC4)cc(C(=O)O)c3c2)cc1", "remaining compound [%]": 63.4}
